Measurements from different studies.
Every numbered part comes from another study and shows a few of its results, in no order. Several values in a cell are separate wells, animals, samples, runs or records.
Sequence of UniProt Q9Y243 (whole entry, looked up): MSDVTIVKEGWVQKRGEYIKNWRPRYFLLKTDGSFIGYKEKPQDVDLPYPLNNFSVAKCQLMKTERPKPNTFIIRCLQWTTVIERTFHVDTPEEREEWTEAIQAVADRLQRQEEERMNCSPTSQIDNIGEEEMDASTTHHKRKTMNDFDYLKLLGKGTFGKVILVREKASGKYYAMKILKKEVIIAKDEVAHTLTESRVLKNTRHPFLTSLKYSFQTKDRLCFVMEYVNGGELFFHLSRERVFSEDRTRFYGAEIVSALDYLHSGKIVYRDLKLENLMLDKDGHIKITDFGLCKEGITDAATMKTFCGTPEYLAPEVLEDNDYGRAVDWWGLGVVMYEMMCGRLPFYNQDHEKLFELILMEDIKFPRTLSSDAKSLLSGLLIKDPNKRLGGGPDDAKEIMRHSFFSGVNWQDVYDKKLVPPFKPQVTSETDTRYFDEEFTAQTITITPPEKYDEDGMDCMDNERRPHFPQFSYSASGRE

Set 1
Target: Serine/threonine-protein kinase ULK1 (ULK1, Homo sapiens, UniProt O75385)
Sequence of UniProt O75385 (whole entry, looked up): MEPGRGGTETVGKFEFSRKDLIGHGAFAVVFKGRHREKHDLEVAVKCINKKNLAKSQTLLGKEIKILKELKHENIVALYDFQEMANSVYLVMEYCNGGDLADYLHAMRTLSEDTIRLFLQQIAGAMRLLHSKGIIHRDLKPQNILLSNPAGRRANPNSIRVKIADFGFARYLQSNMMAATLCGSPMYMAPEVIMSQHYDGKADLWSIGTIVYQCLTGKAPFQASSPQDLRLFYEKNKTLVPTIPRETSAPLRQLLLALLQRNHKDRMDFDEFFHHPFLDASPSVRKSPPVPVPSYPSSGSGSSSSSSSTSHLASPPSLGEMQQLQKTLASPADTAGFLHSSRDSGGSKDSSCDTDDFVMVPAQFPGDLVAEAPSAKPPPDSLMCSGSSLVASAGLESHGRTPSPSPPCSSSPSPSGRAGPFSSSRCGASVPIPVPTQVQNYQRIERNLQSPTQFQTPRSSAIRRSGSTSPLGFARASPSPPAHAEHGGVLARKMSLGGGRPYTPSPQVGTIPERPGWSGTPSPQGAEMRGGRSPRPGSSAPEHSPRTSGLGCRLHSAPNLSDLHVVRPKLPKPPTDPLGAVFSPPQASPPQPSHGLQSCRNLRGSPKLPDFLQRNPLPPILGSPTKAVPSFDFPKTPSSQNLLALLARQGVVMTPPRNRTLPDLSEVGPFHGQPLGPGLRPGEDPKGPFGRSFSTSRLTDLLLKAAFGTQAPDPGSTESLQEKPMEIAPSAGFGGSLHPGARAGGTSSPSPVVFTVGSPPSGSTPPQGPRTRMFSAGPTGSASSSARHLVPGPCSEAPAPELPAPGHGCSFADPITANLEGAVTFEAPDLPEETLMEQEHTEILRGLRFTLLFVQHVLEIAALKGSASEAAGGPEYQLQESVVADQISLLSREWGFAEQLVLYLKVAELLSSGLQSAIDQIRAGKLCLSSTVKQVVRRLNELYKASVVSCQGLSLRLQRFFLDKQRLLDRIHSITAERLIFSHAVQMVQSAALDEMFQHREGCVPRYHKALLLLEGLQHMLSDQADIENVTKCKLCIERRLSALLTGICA
Read-out: enzyme activity
Mode: inhibitor
Tested at: 0.5 µM
Baseline: control
Compound | remaining activity [%]
O=C1Cc2c([nH]c3ccc([N+](=O)[O-])cc23)-c2ccccc2N1 | 85.1
Cc1ccc(NC2=CC(=O)c3sc(C)nc3C2=O)cc1 | 114
NC(=O)c1ccc(N(C(N)=O)c2c(F)cccc2F)nc1-c1ccc(F)cc1F | 104
O=S(=O)(NCCNC/C=C/c1ccc(Br)cc1)c1cccc2cnccc12 | 102
Oc1ccc(Nc2nc(-c3ccc(Cl)cc3)cs2)cc1 | 84.2
CCc1[nH]c(-c2ccc(OC)cc2)nc1-c1ccncc1 | 84.5
CCCC(=O)Oc1ccc2[nH]c(C(=O)c3cc4ccccc4[nH]3)cc2c1 | 103
O=C1NC(=O)C(c2c[nH]c3ccccc23)=C1c1c[nH]c2ccccc12 | 105
Nc1nccc(-c2c(-c3ccc(F)cc3)ncn2C2CCNCC2)n1 | 95.3
CC#CC(=O)Nc1cc2c(Nc3ccc(F)c(Cl)c3)ncnc2cn1 | 96.6
Nc1ncnc2c1cnn2-c1ccccc1 | 99.5
Fc1ccc(-c2nc3n(c2-c2ccncc2)CCS3)cc1 | 82.6
N#CC(=C(N)Sc1ccc(N)cc1)c1ccccc1C(F)(F)F | 99.6
CC[n+]1c(/C=C/N(C)c2ccccc2)n(-c2ccccc2)c2ccc(-c3nc4ccccc4s3)cc21 | 90.9
CSc1nc(-c2ccnc(N[C@@H](C)c3ccccc3)c2)c(-c2ccc(F)cc2)[nH]1 (racemic) | 110
COc1ccc(S(=O)(=O)N(CCO)c2ccccc2CN(C)CC=Cc2ccc(Cl)cc2)cc1 | 99.7
CC(C)(C)n1nc(Cc2cccc3ccccc23)c2c(N)ncnc21 | 99.2
CC(=O)c1ccc(N2CCOCC2)cc1O | 94.8
COc1cc(Nc2c(C#N)cnc3cc(OCCCN4CCN(C)CC4)c(OC)cc23)c(Cl)cc1Cl | 79.1
Cc1cc(Nc2nc(-c3ccccc3)nc3ccccc23)n[nH]1 | 81.1
Cc1cncc2cccc(S(=O)(=O)N3CCCN(C(=O)CN)C[C@@H]3C)c12 | 51.8
Nc1nc(Nc2ccc(S(N)(=O)=O)cc2)nn1C(=O)c1c(F)cccc1F | 62.5

Set 2
Target: DNA polymerase theta, helicase domain (POLQ, Homo sapiens, UniProt O75417)
Sequence of UniProt O75417 (whole entry, looked up): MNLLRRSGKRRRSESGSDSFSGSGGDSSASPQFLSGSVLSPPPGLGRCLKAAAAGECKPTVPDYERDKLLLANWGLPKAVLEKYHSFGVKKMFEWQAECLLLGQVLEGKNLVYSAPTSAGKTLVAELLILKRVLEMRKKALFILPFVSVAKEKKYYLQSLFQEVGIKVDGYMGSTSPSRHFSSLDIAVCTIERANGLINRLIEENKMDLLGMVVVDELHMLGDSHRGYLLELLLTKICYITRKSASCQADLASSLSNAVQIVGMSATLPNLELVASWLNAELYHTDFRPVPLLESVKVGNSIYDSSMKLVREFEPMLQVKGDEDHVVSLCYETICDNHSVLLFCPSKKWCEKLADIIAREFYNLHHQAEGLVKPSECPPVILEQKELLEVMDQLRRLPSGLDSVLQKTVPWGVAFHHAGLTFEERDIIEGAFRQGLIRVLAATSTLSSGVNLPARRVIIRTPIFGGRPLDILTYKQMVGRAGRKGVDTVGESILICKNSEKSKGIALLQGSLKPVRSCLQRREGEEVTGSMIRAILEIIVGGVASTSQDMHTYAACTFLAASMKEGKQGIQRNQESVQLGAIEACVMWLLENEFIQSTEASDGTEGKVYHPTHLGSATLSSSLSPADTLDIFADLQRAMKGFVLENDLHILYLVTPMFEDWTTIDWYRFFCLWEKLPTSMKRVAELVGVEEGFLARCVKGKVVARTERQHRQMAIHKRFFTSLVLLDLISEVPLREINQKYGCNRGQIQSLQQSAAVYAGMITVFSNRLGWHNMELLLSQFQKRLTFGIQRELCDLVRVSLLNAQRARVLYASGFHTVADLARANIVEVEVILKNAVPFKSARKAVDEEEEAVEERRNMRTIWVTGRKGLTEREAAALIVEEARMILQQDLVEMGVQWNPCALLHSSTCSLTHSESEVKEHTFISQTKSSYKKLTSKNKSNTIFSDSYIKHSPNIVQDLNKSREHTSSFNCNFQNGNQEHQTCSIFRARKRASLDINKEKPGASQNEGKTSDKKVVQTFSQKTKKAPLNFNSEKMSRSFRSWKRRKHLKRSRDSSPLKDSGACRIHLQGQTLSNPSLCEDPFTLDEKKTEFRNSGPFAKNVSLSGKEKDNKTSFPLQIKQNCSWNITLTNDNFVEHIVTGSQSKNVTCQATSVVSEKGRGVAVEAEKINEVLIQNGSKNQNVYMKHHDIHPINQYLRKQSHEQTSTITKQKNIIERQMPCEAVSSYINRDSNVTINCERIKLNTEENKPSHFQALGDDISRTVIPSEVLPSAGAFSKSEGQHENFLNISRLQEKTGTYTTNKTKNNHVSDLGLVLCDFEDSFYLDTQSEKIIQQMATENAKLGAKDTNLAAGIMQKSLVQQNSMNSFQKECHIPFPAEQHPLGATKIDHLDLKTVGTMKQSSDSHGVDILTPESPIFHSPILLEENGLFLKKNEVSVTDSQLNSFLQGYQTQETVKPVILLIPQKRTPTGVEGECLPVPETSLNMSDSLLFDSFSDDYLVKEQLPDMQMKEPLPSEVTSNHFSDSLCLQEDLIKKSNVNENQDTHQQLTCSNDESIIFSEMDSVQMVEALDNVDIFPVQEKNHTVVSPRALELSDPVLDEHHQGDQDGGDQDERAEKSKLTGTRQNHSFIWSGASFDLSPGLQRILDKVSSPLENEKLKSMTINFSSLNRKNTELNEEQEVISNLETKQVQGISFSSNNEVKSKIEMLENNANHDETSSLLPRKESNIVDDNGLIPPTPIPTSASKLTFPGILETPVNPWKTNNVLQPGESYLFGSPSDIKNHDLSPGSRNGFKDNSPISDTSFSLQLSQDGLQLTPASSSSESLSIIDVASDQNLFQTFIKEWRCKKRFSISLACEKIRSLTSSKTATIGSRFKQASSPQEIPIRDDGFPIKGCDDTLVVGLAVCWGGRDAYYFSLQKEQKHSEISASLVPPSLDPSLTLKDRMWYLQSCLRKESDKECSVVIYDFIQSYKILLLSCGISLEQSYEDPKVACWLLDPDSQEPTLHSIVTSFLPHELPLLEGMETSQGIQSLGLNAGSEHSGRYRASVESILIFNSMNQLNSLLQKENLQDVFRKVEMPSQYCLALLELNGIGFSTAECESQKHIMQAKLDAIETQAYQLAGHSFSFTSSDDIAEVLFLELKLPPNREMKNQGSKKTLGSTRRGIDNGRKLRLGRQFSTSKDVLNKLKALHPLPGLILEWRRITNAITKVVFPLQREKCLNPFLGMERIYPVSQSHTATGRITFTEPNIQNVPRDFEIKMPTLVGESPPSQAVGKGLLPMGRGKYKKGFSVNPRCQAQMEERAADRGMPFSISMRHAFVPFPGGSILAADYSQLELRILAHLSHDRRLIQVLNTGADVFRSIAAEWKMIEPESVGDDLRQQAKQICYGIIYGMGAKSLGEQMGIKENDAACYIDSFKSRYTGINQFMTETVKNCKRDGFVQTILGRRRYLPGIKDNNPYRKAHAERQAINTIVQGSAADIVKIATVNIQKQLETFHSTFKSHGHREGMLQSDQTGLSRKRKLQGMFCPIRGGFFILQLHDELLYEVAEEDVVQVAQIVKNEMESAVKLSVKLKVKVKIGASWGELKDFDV
Mode: inhibitor
Tested at: concentration not given
With: with ssDNA
Structure (SMILES) | remaining activity
COc1ccc2c(c1)c(CC(=O)O)c(C)n2Cc1ccc(Cl)cc1 | 69.1% and 69.3%
C/C(O)=C(\C#N)C(=O)Nc1ccc(C(F)(F)F)cc1 | 68.1% and 67%
CCCCCCCCCCCCCCCC(=O)OC[C@H](O)[C@H]1OC(=O)C(O)=C1O | 19.3% and 26.8%
O=C(O)C1=CC(=C(c2ccc(O)c(C(=O)O)c2)c2ccc(O)c(C(=O)O)c2)C=CC1=O | 4.82% and 2.62%
Cc1c(Cl)cccc1NC(=O)CSc1ncc(S(=O)(=O)c2ccc(C(C)C)cc2)c(=O)[nH]1 | 70.3% and 68.2%
Cc1ccc(C(=O)Nc2ccccc2C(=O)O)cc1S(=O)(=O)N1CCCCCC1 | 71.5% and 66%
Cc1ccc(-c2n[nH]c3c2C(c2ccccc2Cl)N(c2ccc(C(=O)O)cc2)C3=O)cc1 (centres unmarked) | 71.9% and 80%
CC[N+](C)(CC)CCC[n+]1c(-c2ccccc2)c2cc(N)ccc2c2ccc(N)cc21 | 40.6% and 42.4%
Cc1ccc(C(=O)c2cc(O)c(O)c([N+](=O)[O-])c2)cc1 | 49.9% and 51.8%
COC(=O)[C@]12CCC(C)(C)C[C@H]1[C@H]1C(=O)C=C3[C@@]4(C)C=C(C#N)C(=O)C(C)(C)[C@@H]4CC[C@@]3(C)[C@]1(C)CC2 | 42.9% and 41%
CCOc1cccc2c1N[C@@H](c1ccc(C(=O)O)cc1)[C@H]1CC=C[C@@H]21 | 46% and 51.8%
CCCCCCCCCCCCc1ccc(S(=O)(=O)Nc2nncs2)cc1 | 99.9% and 105%

Set 3
Structure (SMILES): O=C1CCC(N2Cc3cc(C4CCN(Cc5ccccc5)CC4)ccc3C2=O)C(=O)N1 (centres unmarked)
Target: CRBN/Zinc finger protein Helios (Homo sapiens, UniProt Q96SW2+Q9UKS7)
Sequence of UniProt Q9UKS7 (whole entry, looked up): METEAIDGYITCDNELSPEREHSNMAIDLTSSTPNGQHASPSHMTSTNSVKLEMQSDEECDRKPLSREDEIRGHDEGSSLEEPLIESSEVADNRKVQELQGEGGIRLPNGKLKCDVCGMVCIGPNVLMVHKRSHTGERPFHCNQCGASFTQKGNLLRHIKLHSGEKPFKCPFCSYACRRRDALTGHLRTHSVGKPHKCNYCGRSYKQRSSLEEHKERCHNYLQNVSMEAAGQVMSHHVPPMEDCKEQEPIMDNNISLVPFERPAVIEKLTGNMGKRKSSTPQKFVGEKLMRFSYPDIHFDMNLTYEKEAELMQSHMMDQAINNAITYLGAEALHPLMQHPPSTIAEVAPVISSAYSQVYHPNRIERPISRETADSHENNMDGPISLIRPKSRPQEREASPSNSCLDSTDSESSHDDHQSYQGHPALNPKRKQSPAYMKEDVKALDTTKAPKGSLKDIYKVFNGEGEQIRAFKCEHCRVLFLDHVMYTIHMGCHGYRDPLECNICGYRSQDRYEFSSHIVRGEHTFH
Sequence of UniProt Q96SW2 (whole entry, looked up): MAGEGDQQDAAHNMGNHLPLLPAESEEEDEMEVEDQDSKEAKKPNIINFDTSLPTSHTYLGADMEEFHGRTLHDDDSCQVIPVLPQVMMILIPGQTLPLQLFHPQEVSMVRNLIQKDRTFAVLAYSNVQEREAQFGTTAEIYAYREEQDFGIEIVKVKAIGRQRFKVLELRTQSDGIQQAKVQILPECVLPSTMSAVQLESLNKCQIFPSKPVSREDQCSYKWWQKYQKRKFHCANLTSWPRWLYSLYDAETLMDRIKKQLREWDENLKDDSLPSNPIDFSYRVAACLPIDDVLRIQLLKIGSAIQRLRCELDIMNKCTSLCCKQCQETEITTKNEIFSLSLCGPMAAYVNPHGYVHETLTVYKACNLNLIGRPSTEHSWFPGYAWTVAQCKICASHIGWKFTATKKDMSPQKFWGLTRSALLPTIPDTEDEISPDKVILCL
Mode: degrader
Cells: HEK293
method | tested at | time | protein remaining [%]
HiBiT kinetics | 0.1524 nM | 0.5 h | 101
HiBiT | 0.4572 nM | 6 h | 81.8
HiBiT kinetics | 0.05081 nM | 1 h | 105
HiBiT | 0.01694 nM | – | 92.6
HiBiT kinetics | 1.372 nM | 0.5 h | 108
HiBiT | 12.35 nM | 6 h | 40.9
HiBiT | 12.35 nM | – | 40.9
HiBiT kinetics | 0.01694 nM | 0.5 h | 105
HiBiT | 0.05081 nM | – | 101
HiBiT kinetics | 0.4572 nM | 1 h | 92.8
HiBiT kinetics | 333.3 nM | 3 h | 29.4
HiBiT kinetics | 111.1 nM | 6 h | 22.4
HiBiT | 0.4572 nM | – | 81.8
HiBiT kinetics | 0.1524 nM | 1 h | 89.4
HiBiT | 37.04 nM | 6 h | 42.9

Set 4
Structure (SMILES): Nc1cnc(N2CCc3cc(S(=O)(=O)Nc4c(F)cc(Cl)cc4F)cc(N4CCCC4=O)c32)nc1
Read-out: cell-free assay
Method: competition with immobilised ligand
Tested at: 1 µM
target | remaining binding [%]
Cyclin-dependent kinase 4, with cyclin D1 (CDK4, Homo sapiens, UniProt P11802) | 97
PRKAA2 (Homo sapiens, UniProt P54646) | 100
NIM1K (Homo sapiens, UniProt Q8IY84) | 100
MINK1 (Homo sapiens, UniProt Q8N4C8) | 100
Myosin-IIIb (MYO3B, Homo sapiens, UniProt Q8WXR4) | 100
PAK6 (Homo sapiens, UniProt Q9NQU5) | 100
TBK1 (Homo sapiens, UniProt Q9UHD2) | 85
HUNK (Homo sapiens, UniProt P57058) | 99
CDK8 (Homo sapiens, UniProt P49336) | 100
Tyrosine-protein kinase ABL1, phosphorylated (ABL1, Homo sapiens, UniProt P00519, T315I) | 98
TLK1 (Homo sapiens, UniProt Q9UKI8) | 100
ROS1 (Homo sapiens, UniProt P08922) | 99
MAPK15 (Homo sapiens, UniProt Q8TD08) | 84
TGFBR2 (Homo sapiens, UniProt P37173) | 92
PHKG2 (Homo sapiens, UniProt P15735) | 100
TIE1 (Homo sapiens, UniProt P35590) | 100
MARK2 (Homo sapiens, UniProt Q7KZI7) | 74
STK33 (Homo sapiens, UniProt Q9BYT3) | 80
MTOR (Homo sapiens, UniProt P42345) | 100
TSSK3 (Homo sapiens, UniProt Q96PN8) | 100
OXSR1 (Homo sapiens, UniProt O95747) | 75
AKT3 (Homo sapiens, UniProt Q9Y243) | 94
STK26 (Homo sapiens, UniProt Q9P289) | 83
EPHA6 (Homo sapiens, UniProt Q9UF33) | 98
PDPK1 (Homo sapiens, UniProt O15530) | 98

Some of these lines once more (set 4):
target | remaining binding [%]
MINK1 (Homo sapiens, UniProt Q8N4C8) | 100
Myosin-IIIb (MYO3B, Homo sapiens, UniProt Q8WXR4) | 100
PAK6 (Homo sapiens, UniProt Q9NQU5) | 100
TBK1 (Homo sapiens, UniProt Q9UHD2) | 85
HUNK (Homo sapiens, UniProt P57058) | 99
CDK8 (Homo sapiens, UniProt P49336) | 100
Tyrosine-protein kinase ABL1, phosphorylated (ABL1, Homo sapiens, UniProt P00519, T315I) | 98
TLK1 (Homo sapiens, UniProt Q9UKI8) | 100
